Measured values gathered from unrelated publications.
Each line is one published result; not all experiments were run side by side. ± gives the spread as reported.
Technique: steady-state kinetics
B1: ltaE H126F/H83F (Escherichia coli, UniProt P75823); chain MIDLRSDTVTRPSRAMLEAMMAAPVGDDVYGDDPTVNALQDYAAELSGKEAAIFLPTGTQANLVALLSHCERGEEYIVGQAAFNYLFEAGGAAVLGSIQPQPIDAAADGTLPLDKVAMKIKPDDIFFARTKLLSLENTHNGKVLPREYLKEAWEFTRERNLALHVDGARIFNAVVAYGCELKEITQYCDSFTICLSKGLGTPVGSLLVGNRDYIKRAIRWRKMTGGGMRQSGILAAAGIYALKNNVARLQEDHDNAAWMAEQLREAGADVMRQDTNMLFVRVGEENAAALGEYMKARNVLINASPIVRLVTHLDVSREQLAEVAAHWRAFLAR
B2: ASRGL1 (Homo sapiens, UniProt Q7L266); chain 1 MNPIVVVHGGGAGPISKDRKERVHQGMVRAATVGYGILREGGSAVDAVEGAVVALEDDPEFNAGCGSVLNTNGEVEMDASIMDGKDLSAGAVSAVQCIANPIKLARLVMEKTPHCFLTDQGAAQFAAAMGVPEIPGEKLVTERNKKRLEKEKHEKGAQKTDCQKNLG; chain 2 TVGAVALDCKGNVAYATSTGGIVNKMVGRVGDSPCLGAGGYADNDIGAVSTTGHGESILKVNLARLTLFHIEQGKTVEEAADLSLGYMKSRVKGLGGLIVVSKTGDWVAKWTSTSMPWAAAKDGKLHFGIDPDDTTITDLP
B3: cyc1 F332A (Streptomyces coelicolor, UniProt Q9K499); chain MHAFPHGTTATPTAIAVPPSLRLPVIEAAFPRQLHPYWPKLQETTRTWLLEKRLMPADKVEEYADGLCYTDLMAGYYLGAPDEVLQAIADYSAWFFVWDDRHDRDIVHGRAGAWRRLRGLLHTALDSPGDHLHHEDTLVAGFADSVRRLYAFLPATWNARFARHFHTVIEAYDREFHNRTRGIVPGVEEYLELRRLTFAHWIWTDLLEPSSGCELPDAVRKHPAYRRAALLSQEFAAWYNDLCSLPKEIAGDEVHNLGISLITHHSLTLEEAIGEVRRRVEECITEFLAVERDALRFADELADGTVRGKELSGAVRANVGNMRNWFSSVYWAHHESGRYMVDSWDDRSTPPYVNNEAAGEK
B4: sacB (Priestia megaterium, UniProt D5DC07); chain KGNDSKDFNNSYGISHITRDNMVKIPQQQNSDQFKVPAFDESTIKNIASAKGKNASGNTIDLDVWDSWPLQNADGTVATYHGYQIVFALAGDPKDSNDTSVYLFYKKAGDKSIDSWKNAGRVFKDSDKFVPNDPHLKNQTQEWSGSGTLTKDGKVRLFYTDYSGKQYGKQTLTTAQVNMSQPNDNTLKVDGVEDYKSIFDGDGKIYQTVQQFIDEGGYDTGDNHTLRDPHYIEDNGHKYLVFEANTGTEDGYQGEDSLYNRAYYGGNNPFFQSEKKKLLEGSNKEKASLANGALGIIELNDDYTLKKVMKPLITSNTVTDEIERANIFKKDGKWYLFTDSRGSKMTIDGIGQDDVYMLGYVSNTLTGKYKPLNDTGLVLHMDLDPNDKTFTYSHFAVPQTKGDNVVITSYMTNRGFYEDNHSTFAPSFLVNIDGSKTSVVKDRVLEQGQLTVDED
B5: WlbA (Thermus thermophilus, UniProt Q72KX8); chain MTRFALTGLAGYIAPRHLKAIKEVGGVLVASLDPATNVGLVDSFFPEAEFFTEPEAFEAYLEDLRDRGEGVDYLSIASPNHLHYPQIRMALRLGANALSEKPLVLWPEEIARLKELEARTGRRVYTVLQLRVHPSLLALKERLGQEKGAKDVVLTYVTGRGKWYGKSWKVDEAKSGGLATNIGIHFFDLLAWLFGRALHVEVHARTPTVNAGYLELEGARVRWFLSIDPSFVPEPLRRQGKRTYRSIAVDGEEVEFSEGFTDLHTEVYRKTLAGEGFGLDEAAEAIRVAALLRTLPLSQPSPENRHPFLG
B6: protein (Sulfurisphaera tokodaii, UniProt Q96XE7); chain MIILAFDIFGTVLDTSTVIQEFRNKQLEYTWLLTIMGKYVEFEEITKITLRYILKVRGEESKFDEELNKWKNLKAYEDTKYLKEISEIAEVYALSNGSINEVKQHLERNGLLRYFKGIFSAESVKEYKPSPKVYKYFLDSIGAKEAFLVSSNAFDVIGAKNAGMRSIFVNRKNTIVDPIGGKPDVIVNDFKELYEWILRYK
B7: PhnY (uncultured bacterium HF130_AEPn_1, UniProt D0E8I4); chain MSYFTQEQKTQWKDNGFVHLKGFLNEALAQDIKDWTQELYEWEEAPGKWMKYFETSSDTGERLLCRVENFIDYHKGIKGFLCGEMIYGMVSELMGEQAVLFKEKINFKYPGGAGFAYHQDAPAFTSFGQKYHITMMVSVDASNEENGCLRMAHGFSEEKTLEQEPDGTVCKKLAAKLDWRPLETGPGDLVLFNSYVPHYSEANTSDRSRRAMFITYNRLSEGEKRLDYFKDKREKFPPEAERIEGKDYSSAESLYNLGNPIK
B8: enzyme G29Y (Thermobifida fusca, UniProt Q47RA9); chain MIMIMASKSSPHDLPDVSGLSIAVLGGTYDQGRGLARRFAMAGHEVILGSRSAERAQAVAAELGEGLPVRGMDNAGAAEAGDVVIVAVPWDGHRALLESLKDVLAGKIVVDCVNPLGFDKRGAYALPVEEGSAAEQAAAILPDSRVVAAFHHVSAVLLLDPEVEKVDLDVLVLGDDREATDVVRALAARIPGVRGVYGGRLRNAHQVEAFTANLISINRRYKAHAGIRITDI
B9: GTPBP3 A322P (Homo sapiens, UniProt Q969Y2); chain TRRSSGAPAPGSGATIFALSSGQGRCGIAVIRTSGPASGHALRILTAPRDLPLARHASLRLLSDPRSGEPLDRALVLWFPGPQSFTGEDCVEFHVHGGPAVVSGVLQALGSVPGLRPAEAGEFTRRAFANGKLNLTEVEGLADLIHAETEAQRRQALRQLDGELGHLCRGWAETLTKALAHVEAYIDFGEDDNLEEGVLEQADIEVRALQVALGAHLRDARRGQRLRSGVHVVVTGPPNAGKSSLVNLLSRKPVSIVSPEPGTTRDVLETPVDLAGFPVLLSDTAGLREGVGPVEQEGVRRPRERLEQADLILAMLDASDLASPSSCNFLATVVASVGAQSPSDSSQRLLLVLNKSDLLSPEGPGPGPDLPPHLLLSCLTGEGLDGLLEALRKELAAVCGDPSTDPPLLTRARHQHHLQGCLDALGHYKQSKDLALAAEALRVARGHLTRLTGGGGTEEILDIIFQDFCVGK
B10: cbh1 (Trichoderma reesei, UniProt P62694); chain QSACTLQSETHPPLTWQKCSSGGTCTQQTGSVVIDANWRWTHATNSSTNCYDGNTWSSTLCPDNETCAKNCCLDGAAYASTYGVTTSGNSLSIGFVTQSAQKNVGARLYLMASDTTYQEFTLLGNEFSFDVDVSQLPCGLNGALYFVSMDADGGVSKYPTNTAGAKYGTGYCDSQCPRDLKFINGQANVEGWEPSSNNANTGIGGHGSCCSEMDIWEANSISEALTPHPCTTVGQEICEGDGCGGTYSDNRYGGTCDPDGCDWNPYRLGNTSFYGPGSSFTLDTTKKLTVVTQFETSGAINRYYVQNGVTFQQPNAELGSYSGNELNDDYCTAEEAEFGGSSFSDKGGLTQFKKATSGGMVLVMSLWDDYYANMLWLDSTYPTNETSSTPGAVRGSCSTSSGVPAQVESQSPNAKVTFSNIKFGPIGSTGNPSGGNPPGGNRGTTTTRRPATTTGSSPGPTQSHYGQCGGIGYSGPTVCASGTTCQVLNPYYSQCL
B11: protein (Irpex lacteus, UniProt A0A510I1H7); chain QSQVWGQCGGIGWTGATTCVAGSVCTKSNDYYSQCIPGAAAPSSAPPASTPVSVPPSQPSGSSGGLANIPASKLTQFSNFGTNPNNVQMFVYKPKNVAANPPLIVASHYCSGTAQAYFTGSKFAQLAETYGYVVIFPSSPHSGTCWDVSSDETLMHDGGSDSLSIANAARFAISNWGVDPNRVFAVGTSSGAMMTSVLAGAYPDIFKAGIVDSGVAFGCFAVPGQPEDSWNSQCSEGQLVLTGQQWAQKVKNAFPGFTGTYPKMQVWHGTADTTLYPQNFFEEVKQWTTIFNYPSTPLSNVTQTNLGSNYHNATFGPNFQAILATGVGHTVPLFEQQYLQFLGIA
UniProt P05164, sequence (whole entry, looked up): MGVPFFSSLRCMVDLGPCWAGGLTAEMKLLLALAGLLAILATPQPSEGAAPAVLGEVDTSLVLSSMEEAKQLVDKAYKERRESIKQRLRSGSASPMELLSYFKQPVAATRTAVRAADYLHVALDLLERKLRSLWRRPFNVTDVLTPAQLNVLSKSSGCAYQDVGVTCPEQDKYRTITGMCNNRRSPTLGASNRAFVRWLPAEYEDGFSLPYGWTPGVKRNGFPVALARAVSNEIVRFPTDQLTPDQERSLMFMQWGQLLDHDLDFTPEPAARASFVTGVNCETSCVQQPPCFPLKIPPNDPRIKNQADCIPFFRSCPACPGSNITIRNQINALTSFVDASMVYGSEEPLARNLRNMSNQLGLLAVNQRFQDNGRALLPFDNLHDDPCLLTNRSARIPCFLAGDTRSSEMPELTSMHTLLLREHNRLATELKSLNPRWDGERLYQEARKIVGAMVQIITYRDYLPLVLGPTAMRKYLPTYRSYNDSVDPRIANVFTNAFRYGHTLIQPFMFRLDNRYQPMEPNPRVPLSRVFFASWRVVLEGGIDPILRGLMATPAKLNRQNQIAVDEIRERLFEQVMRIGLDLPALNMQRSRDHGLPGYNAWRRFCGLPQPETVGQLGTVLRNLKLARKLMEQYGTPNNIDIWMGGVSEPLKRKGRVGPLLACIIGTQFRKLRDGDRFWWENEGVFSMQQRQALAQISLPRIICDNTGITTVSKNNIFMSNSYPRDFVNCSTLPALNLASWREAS
UniProt A6T923, sequence (whole entry, looked up): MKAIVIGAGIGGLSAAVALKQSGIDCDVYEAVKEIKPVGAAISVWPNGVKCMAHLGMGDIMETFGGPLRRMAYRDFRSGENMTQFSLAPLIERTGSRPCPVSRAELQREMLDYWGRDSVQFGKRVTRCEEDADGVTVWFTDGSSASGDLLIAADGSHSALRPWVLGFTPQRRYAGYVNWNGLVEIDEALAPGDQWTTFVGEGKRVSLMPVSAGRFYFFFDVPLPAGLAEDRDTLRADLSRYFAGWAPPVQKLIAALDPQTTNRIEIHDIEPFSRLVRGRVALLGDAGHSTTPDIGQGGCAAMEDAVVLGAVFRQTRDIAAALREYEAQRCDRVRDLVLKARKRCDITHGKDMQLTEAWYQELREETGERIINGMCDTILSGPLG
UniProt P07914, sequence (whole entry, looked up): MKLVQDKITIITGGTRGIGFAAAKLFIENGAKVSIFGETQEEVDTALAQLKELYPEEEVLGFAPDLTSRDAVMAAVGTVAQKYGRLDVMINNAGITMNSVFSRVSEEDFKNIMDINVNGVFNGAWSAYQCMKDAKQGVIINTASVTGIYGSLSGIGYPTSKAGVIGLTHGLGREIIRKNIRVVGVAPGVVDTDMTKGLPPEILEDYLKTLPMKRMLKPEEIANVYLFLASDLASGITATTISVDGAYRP
UniProt P07379, sequence (whole entry, looked up): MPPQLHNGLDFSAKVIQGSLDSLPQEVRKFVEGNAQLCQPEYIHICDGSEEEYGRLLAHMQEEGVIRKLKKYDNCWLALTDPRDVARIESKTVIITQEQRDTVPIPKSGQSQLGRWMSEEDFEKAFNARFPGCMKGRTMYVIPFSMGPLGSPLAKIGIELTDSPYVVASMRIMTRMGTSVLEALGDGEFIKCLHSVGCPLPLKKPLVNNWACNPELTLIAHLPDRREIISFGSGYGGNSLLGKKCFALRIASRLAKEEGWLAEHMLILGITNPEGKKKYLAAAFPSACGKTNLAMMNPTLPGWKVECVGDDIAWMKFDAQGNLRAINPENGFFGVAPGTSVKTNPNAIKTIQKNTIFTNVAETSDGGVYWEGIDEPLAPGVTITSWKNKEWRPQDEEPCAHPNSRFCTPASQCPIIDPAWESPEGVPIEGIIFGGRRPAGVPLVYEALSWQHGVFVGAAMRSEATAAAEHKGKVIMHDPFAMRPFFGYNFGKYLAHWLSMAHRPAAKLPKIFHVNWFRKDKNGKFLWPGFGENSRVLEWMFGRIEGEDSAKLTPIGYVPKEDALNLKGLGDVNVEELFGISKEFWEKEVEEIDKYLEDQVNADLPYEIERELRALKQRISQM

| Substance | substrate | pH | temperature | notes | added | kcat |
| --- | --- | --- | --- | --- | --- | --- |
| MPO (Homo sapiens, UniProt P05164) | CC(=O)N1c2ccc(O)cc2Oc2cc(O)ccc21 | – | 25 °C | stopped-flow, integrated fit | – | 224 ± 50 s⁻¹ |
| B1 (ltaE H126F/H83F) | C[C@H](O)[C@H](N)C(=O)O | pH 7 | 30 °C | potassium phosphate 20 mM, retro-aldol cleavage | PLP 500 µM | 0.0283 s⁻¹ |
| protein (Pseudoalteromonas luteoviolacea, UniProt A0A161XU12) | NCC(=O)O | pH 7.5 | 30 °C | positive cooperativity | – | 6 ± 0.2 s⁻¹ |
| B2 (ASRGL1) | C[C@H](NC(=O)C[C@H](N)C(=O)O)C(=O)O | pH 7.4 | 37 °C | NaCl 100 mM | – | 6 ± 0.2 s⁻¹ |
| B3 (cyc1 F332A) | CC(C)=CCC/C(C)=C/CC/C(C)=C/CO[P@@](=O)(O)OP(=O)(O)O | pH 6.5 | 30 °C | – | MgCl2 10 mM | 0.000105 ± 8e-06 s⁻¹ |
| B4 (sacB) | OC[C@H]1O[C@@](CO)(O[C@H]2O[C@H](CO)[C@@H](O)[C@H](O)[C@H]2O)[C@@H](O)[C@@H]1O | pH 6.9 | – | – | – | 248 ± 6.9 s⁻¹ |
| B5 (WlbA) | CC(=O)N[C@H]1[C@@H](OP(=O)(O)OP(=O)(O)OC[C@H]2O[C@@H](n3ccc(=O)[nH]c3=O)[C@H](O)[C@@H]2O)O[C@H](C(=O)O)[C@@H](O)[C@@H]1O | pH 8.5 | 25 °C | – | enzyme-bound NAD(H) | 240 ± 10 s⁻¹ |
| BaiA1 (Clostridium scindens, UniProt P07914) | C[C@H](CCC(=O)SCCNC(=O)CCNC(=O)[C@H](O)C(C)(C)COP(=O)(O)OP(=O)(O)OC[C@H]1O[C@@H](n2cnc3c(N)ncnc32)[C@H](O)[C@@H]1OP(=O)(O)O)[C@H]1CC[C@H]2[C@@H]3[C@H](O)C[C@@H]4C[C@H](O)CC[C@]4(C)[C@H]3C[C@H](O)[C@]12C | pH 8.7 | 37 °C | – | NAD+ | 1.23 s⁻¹ |
| B6 (protein) | C[C@H](Cl)C(=O)O | pH 9.5 | 70 °C | – | – | 0.00213 ± 8.7e-05 s⁻¹ |
| B7 (PhnY) | NCCP(=O)(O)O | – | – | apparent, two-enzyme system | O2, alpha-ketoglutarate, Fe(II) | 0.91 ± 0.15 s⁻¹ |
| enzyme (Limosilactobacillus reuteri, UniProt Q5SBN3) | OC[C@H]1O[C@@](CO)(O[C@H]2O[C@H](CO)[C@@H](O)[C@H](O)[C@H]2O)[C@@H](O)[C@@H]1O | pH 4.7 | 37 °C | – | – | 271 ± 3.1 s⁻¹ |
| protein (Actinidia deliciosa, UniProt C7SHN9) | CC(C)=CCC/C(C)=C/CC/C(C)=C/CO[P@@](=O)(O)OP(=O)(O)O | pH 7.5 | – | – | FPP 1-100 µM | 0.44 ± 0.046 s⁻¹ |
| B8 (enzyme G29Y) | NC(=O)c1ccc[n+](CCO)c1 | pH 8 | 25 °C | – | – | 0.103 ± 0.00967 s⁻¹ |
| hpxO (Klebsiella pneumoniae, UniProt A6T923) | NC(=O)C1=CN([C@@H]2O[C@H](COP(=O)(O)OP(=O)(O)OC[C@H]3O[C@@H](n4cnc5c(N)ncnc54)[C@H](O)[C@@H]3O)[C@@H](O)[C@H]2O)C=CC1 | pH 8 | 25 °C | – | – | 42 ± 2 s⁻¹ |
| Pck1 (Rattus norvegicus, UniProt P07379) | O=C(O)CC(=O)C(=O)O | pH 7.5 | 25 °C | – | OAA, GTP | 54 ± 0.2 s⁻¹ |
| B9 (GTPBP3 A322P) | Nc1nc2c(ncn2[C@@H]2O[C@H](COP(=O)(O)OP(=O)(O)OP(=O)(O)O)[C@@H](O)[C@H]2O)c(=O)[nH]1 | pH 8 | 37 °C | KCl 300 mM | – | 0.0075 ± 0.000833 s⁻¹ |
| B10 (cbh1) | [H][C@@]1(O[C@H]2[C@H](O)[C@@H](O)[C@H](Oc3ccc([N+](=O)[O-])cc3)O[C@@H]2CO)O[C@H](CO)[C@H](O)[C@H](O)[C@H]1O | pH 5 | 25 °C | apparent | – | 0.087 ± 0.002 s⁻¹ |
| B11 (protein) | CC(=O)Oc1ccc2c(C)cc(=O)oc2c1 | pH 6 | 30 °C | – | – | 33.8 ± 5.7 s⁻¹ |

Some of these lines once more:
| Substance | substrate | pH | temperature | notes | added | kcat |
| --- | --- | --- | --- | --- | --- | --- |
| MPO (Homo sapiens, UniProt P05164) | CC(=O)N1c2ccc(O)cc2Oc2cc(O)ccc21 | – | 25 °C | stopped-flow, integrated fit | – | 224 ± 50 s⁻¹ |
